# Measured values pooled from the literature.
# Each numbered part is a random draw from the data of one study; scales do not carry over between parts. Several values in a cell are separate wells, animals, samples, runs or records.
# UniProt P29323, sequence (whole entry, looked up): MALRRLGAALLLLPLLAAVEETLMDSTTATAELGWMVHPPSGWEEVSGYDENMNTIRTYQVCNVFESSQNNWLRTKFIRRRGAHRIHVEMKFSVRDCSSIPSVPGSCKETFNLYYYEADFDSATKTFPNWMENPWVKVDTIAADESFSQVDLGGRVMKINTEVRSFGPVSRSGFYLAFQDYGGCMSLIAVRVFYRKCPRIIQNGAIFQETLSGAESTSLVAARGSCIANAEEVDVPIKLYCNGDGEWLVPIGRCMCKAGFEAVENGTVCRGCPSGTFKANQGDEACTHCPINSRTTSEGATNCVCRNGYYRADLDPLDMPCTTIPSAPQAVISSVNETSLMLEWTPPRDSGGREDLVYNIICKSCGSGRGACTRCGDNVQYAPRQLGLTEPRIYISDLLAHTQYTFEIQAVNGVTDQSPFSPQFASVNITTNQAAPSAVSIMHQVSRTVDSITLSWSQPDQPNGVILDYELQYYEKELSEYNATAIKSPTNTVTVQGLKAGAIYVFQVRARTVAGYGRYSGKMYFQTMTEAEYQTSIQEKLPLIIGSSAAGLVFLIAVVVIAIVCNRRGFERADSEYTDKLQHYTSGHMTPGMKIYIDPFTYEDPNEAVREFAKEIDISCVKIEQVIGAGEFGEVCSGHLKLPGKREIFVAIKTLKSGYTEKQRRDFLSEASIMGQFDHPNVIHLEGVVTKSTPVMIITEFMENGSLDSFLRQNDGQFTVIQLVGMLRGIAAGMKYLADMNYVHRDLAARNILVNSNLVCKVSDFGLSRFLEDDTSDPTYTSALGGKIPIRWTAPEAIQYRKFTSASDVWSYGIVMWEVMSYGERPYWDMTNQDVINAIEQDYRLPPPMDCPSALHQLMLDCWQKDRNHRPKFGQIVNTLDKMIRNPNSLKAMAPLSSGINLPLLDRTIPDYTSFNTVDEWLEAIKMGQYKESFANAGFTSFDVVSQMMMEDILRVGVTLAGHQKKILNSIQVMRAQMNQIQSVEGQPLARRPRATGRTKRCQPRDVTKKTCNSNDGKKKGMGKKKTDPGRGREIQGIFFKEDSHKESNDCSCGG
# UniProt P19525, sequence (whole entry, looked up): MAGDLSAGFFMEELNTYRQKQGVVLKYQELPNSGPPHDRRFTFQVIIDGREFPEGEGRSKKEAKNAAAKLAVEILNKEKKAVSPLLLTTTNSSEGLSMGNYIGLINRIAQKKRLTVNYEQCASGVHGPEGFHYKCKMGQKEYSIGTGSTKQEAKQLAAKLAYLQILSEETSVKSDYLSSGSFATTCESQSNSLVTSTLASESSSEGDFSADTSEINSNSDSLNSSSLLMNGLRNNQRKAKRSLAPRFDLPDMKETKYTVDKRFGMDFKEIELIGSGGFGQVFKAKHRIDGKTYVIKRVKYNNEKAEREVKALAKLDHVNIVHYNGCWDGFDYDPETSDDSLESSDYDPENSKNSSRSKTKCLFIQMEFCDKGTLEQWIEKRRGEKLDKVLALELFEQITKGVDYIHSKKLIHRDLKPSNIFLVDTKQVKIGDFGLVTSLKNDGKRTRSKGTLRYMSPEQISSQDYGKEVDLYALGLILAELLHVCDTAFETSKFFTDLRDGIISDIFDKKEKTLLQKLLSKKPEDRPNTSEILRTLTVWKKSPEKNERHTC
# UniProt Q8IW41, sequence (whole entry, looked up): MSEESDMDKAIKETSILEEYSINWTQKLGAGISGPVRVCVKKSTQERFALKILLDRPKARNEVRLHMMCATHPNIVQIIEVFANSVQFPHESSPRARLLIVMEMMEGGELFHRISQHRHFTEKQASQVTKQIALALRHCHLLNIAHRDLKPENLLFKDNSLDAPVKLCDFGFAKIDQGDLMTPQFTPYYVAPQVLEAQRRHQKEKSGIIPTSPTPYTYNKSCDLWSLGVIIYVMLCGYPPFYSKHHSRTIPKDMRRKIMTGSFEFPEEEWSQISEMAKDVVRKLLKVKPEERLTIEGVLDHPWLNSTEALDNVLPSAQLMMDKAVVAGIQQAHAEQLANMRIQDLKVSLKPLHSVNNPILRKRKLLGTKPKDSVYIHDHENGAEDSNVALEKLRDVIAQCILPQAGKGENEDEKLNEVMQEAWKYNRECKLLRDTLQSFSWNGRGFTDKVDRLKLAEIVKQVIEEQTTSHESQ
# UniProt P49760, sequence (whole entry, looked up): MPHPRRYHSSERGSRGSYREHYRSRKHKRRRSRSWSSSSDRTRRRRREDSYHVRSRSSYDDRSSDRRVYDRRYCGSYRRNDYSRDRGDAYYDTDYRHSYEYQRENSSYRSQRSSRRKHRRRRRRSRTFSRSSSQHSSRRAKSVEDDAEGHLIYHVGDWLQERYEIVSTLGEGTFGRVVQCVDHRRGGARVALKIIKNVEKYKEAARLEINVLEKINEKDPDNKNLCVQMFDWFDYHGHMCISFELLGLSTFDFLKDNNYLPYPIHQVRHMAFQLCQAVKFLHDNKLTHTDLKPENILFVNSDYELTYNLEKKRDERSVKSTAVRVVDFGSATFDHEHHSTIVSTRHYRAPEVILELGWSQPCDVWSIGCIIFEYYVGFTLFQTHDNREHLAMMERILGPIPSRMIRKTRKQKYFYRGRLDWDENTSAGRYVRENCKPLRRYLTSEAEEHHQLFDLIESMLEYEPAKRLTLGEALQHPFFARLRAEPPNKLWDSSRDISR
# UniProt P07949, sequence (whole entry, unmodified, looked up): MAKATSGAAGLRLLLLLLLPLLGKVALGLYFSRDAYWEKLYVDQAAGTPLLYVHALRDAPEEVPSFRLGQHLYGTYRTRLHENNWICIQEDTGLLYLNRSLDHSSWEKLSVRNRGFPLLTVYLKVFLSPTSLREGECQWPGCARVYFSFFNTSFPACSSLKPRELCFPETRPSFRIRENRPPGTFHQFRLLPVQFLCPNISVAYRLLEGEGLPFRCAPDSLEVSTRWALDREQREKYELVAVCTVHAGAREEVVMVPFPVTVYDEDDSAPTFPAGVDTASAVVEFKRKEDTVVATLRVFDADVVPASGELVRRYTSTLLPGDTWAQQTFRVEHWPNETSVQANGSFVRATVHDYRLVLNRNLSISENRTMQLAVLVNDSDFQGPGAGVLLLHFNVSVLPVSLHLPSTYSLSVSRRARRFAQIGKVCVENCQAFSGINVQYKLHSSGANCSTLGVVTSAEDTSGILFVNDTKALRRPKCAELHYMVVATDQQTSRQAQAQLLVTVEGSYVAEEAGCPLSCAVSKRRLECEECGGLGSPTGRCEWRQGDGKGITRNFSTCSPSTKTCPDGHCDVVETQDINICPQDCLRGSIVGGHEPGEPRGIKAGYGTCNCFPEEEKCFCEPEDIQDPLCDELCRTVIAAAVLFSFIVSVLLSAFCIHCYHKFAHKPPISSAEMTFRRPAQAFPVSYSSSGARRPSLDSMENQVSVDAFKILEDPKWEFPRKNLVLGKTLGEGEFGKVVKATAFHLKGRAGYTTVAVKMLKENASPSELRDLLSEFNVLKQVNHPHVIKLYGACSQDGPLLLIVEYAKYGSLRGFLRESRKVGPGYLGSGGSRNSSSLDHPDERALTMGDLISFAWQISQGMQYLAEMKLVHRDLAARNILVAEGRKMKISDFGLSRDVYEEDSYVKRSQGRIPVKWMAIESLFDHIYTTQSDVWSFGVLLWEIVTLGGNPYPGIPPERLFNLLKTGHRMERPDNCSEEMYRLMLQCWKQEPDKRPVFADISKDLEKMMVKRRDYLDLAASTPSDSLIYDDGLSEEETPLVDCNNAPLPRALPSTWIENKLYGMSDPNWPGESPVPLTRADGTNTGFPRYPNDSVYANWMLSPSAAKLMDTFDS
# UniProt Q13237, sequence (whole entry, looked up): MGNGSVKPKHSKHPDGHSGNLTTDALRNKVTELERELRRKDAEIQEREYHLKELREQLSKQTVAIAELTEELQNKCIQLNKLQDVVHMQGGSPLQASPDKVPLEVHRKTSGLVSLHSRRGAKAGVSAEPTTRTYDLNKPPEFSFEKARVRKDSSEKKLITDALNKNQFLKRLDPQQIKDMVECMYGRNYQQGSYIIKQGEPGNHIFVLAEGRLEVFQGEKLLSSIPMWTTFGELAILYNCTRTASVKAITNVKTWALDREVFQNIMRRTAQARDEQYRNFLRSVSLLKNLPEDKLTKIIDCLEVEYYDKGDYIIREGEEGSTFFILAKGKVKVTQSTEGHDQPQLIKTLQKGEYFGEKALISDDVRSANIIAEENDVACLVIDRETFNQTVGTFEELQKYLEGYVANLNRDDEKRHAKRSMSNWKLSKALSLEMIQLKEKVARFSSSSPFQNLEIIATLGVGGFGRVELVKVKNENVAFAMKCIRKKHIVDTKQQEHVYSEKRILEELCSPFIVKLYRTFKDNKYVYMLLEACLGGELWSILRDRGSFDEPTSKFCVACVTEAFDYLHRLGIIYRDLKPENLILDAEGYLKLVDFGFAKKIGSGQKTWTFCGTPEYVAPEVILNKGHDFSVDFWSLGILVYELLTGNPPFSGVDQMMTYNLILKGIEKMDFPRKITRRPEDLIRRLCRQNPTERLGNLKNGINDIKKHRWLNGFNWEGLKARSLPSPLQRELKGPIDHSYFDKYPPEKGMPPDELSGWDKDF

# Block 1
# Structure (SMILES): Cc1noc([C@H]2C[C@@H](c3ccc(C(F)(F)F)cc3)CN(C(=O)N3CCS(=O)(=O)C3)C2)n1
# Observed: cell-free assay
# Method: competition with immobilised ligand
# Tested at: 1 µM
target,remaining binding [%]
"Receptor-type tyrosine-protein kinase FLT3 (FLT3, Homo sapiens, UniProt P36888, D835Y)",100
"MAP kinase-activated protein kinase 5 (MAPKAPK5, Homo sapiens, UniProt Q8IW41)",100
"Ephrin type-B receptor 2 (EPHB2, Homo sapiens, UniProt P29323)",100
"Serine/threonine-protein kinase PAK 1 (PAK1, Homo sapiens, UniProt Q13153)",79
"cGMP-dependent protein kinase 2 (PRKG2, Homo sapiens, UniProt Q13237)",100
"Receptor-type tyrosine-protein kinase FLT3 (FLT3, Homo sapiens, UniProt P36888)",100
"Serine/threonine-protein kinase N2 (PKN2, Homo sapiens, UniProt Q16513)",100
"Interferon-induced, double-stranded RNA-activated protein kinase (EIF2AK2, Homo sapiens, UniProt P19525)",100
"Ephrin type-A receptor 1 (EPHA1, Homo sapiens, UniProt P21709)",89
"Serine/threonine-protein kinase RIO3 (RIOK3, Homo sapiens, UniProt O14730)",100
"Dual specificity mitogen-activated protein kinase kinase 6 (MAP2K6, Homo sapiens, UniProt P52564)",100
"Dual specificity protein kinase CLK2 (CLK2, Homo sapiens, UniProt P49760)",100
"Serine/threonine-protein kinase Sgk2 (SGK2, Homo sapiens, UniProt Q9HBY8)",100
"ALK tyrosine kinase receptor (ALK, Homo sapiens, UniProt Q9UM73, C1156Y)",100
"Proto-oncogene tyrosine-protein kinase receptor Ret (RET, Homo sapiens, UniProt P07949, M918T)",100
"Serine/threonine-protein kinase Nek4 (NEK4, Homo sapiens, UniProt P51957)",82
"Epidermal growth factor receptor (EGFR, Homo sapiens, UniProt P00533, A750P/del747-749)",100
"Vascular endothelial growth factor receptor 1 (FLT1, Homo sapiens, UniProt P17948)",100
"Macrophage colony-stimulating factor 1 receptor, autoinhibited (CSF1R, Homo sapiens, UniProt P07333)",100

# Block 2
# Species: human
# Sample: microsomes or S9
# Tested at: 2 µM
# Time: 0.5 h
Compound,remaining compound [%]
CN(Cc1cc2cc(F)ccc2[nH]1)C(=O)CC1C(=O)NCCN1CC(C)(C)C (stereo not shown),0.749
O=C1CCCC2=C1C(c1ccco1)Nc1ccc3ccccc3c12 (stereo not shown),38.6
Cc1cccc2c(O)c3nc(C)n(-c4ccccc4)c3nc12,69.3
COc1cc(OC)c(OC)c(C(c2sc3nc(C)nn3c2O)N2CCN(C)CC2)c1 (stereo not shown),> 100
O=C(CN1CCOCC1)N1CCC(c2nc(CCOCC3CCOCC3)no2)C1 (stereo not shown),> 100
COC(=O)CC(c1cc2ccccc2[nH]c1=O)c1c(Cc2ccccc2)[nH][nH]c1=O (stereo not shown),89.2
CCOc1cc(C(=O)Nc2[nH]nc(C)c2-c2ccc(OC)c(OC)c2)cc(OCC)c1OCC,17.6
Cc1nc2cc(=O)[nH]n2c(C)c1CCC(=O)N[C@H](CO)C(C)C,43.4

# Block 3
# Target: Calcium/calmodulin-dependent protein kinase type II subunit alpha (CAMK2A, Homo sapiens, UniProt Q9UQM7)
# UniProt Q9UQM7, sequence (whole entry, looked up): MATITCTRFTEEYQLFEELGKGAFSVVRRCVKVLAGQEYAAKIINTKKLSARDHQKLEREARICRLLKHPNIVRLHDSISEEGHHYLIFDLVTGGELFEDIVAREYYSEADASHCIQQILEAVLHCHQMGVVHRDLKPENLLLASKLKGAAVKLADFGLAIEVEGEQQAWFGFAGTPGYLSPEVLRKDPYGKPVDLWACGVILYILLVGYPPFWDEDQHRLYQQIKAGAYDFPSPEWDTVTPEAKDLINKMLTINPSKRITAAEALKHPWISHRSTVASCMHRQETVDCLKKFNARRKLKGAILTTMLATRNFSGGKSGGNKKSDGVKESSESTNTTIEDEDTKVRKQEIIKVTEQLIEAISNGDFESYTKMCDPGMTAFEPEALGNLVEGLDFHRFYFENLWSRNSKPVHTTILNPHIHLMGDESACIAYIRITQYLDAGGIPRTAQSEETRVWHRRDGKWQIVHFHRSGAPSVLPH
# Observed: enzyme activity
# Action: inhibitor
# Tested at: 0.5 µM
# Baseline: control
SMILES,remaining activity [%]
Cc1cc(Nc2cc(N3CCN(C)CC3)nc(Sc3ccc(NC(=O)C4CC4)cc3)n2)[nH]n1,84.1
O=C(c1cc2cc(O)ccc2[nH]1)c1cc2cc(O)ccc2[nH]1,74.5
O=C1Nc2ccccc2/C1=C\c1c(Cl)[nH]c2ccccc12,103
COc1cccc(-c2cc(=O)c3ccccc3o2)c1N,93.6
N#Cc1cnc2cnc(NCc3cccnc3)cc2c1Nc1ccc(F)c(Cl)c1,105
Cc1ccc(S(=O)(=O)/C=C/C#N)cc1,103
COc1ccc2c(c1)c(C1=C(c3c[nH]c4ccccc34)C(=O)NC1=O)cn2CCCN(C)C,102
COc1ccc(COc2ccc(Cc3cnc(N)nc3N)cc2OC)cc1,105
CN1CCN(c2ccc3nc(-c4c(N)c5c(F)cccc5[nH]c4=O)[nH]c3c2)CC1,53.9
O=C1Nc2ccc(Br)cc2/C1=C/c1cc2c([nH]1)CCCC2,93.3
CCCNC(=O)Nc1ccc(Oc2ncnc3cc(OC)c(OC)cc23)cc1Cl,97.5
CN(C)S(=O)(=O)c1ccc2c(c1)/C(=C/c1cc3c([nH]1)CCCC3)C(=O)N2,61.4
CCCCc1c(-c2ccc(OC)cc2)[nH]c2nccnc12,100
O=C1NC(=O)c2c1c1c3ccccc3[nH]c1n1cncc21,55.1
Oc1cccc(-c2nc(N3CCOCC3)c3oc4ncccc4c3n2)c1,93.7
O=C1NC(=O)c2c1c1c3ccccc3[nH]c1c1[nH]c3cc(Br)ccc3c21,78.3
c1ccc(-c2n[nH]c3c2oc2ccccc23)cc1,110
O=c1cc(N2CCOCC2)oc2c(-c3ccccc3)cccc12,91.1

# Further values, each from its own experiment
SMILES,cell line,method,tested at,time,baseline,endpoint,value
CC(C)C[C@H]1NC(=O)[C@H](N(C)C(=O)[C@@H](CC2CCC2)NC(=O)[C@H]2C[C@H](F)CN2C(=O)C2(C(F)(F)F)CC(F)(F)C2)CCCCNC(=O)C2(CC2)NC(=O)[C@@H](Cc2cc(Cl)ccc2Cl)N(C)C1=O,NCI-H1299,Vi-Cell counting,200 nM,6 days,DMSO,cell count,1.02 and 1.05 and 0.97

# A few entries again (block 3):
SMILES,remaining activity [%]
c1ccc(-c2n[nH]c3c2oc2ccccc23)cc1,110
N#Cc1cnc2cnc(NCc3cccnc3)cc2c1Nc1ccc(F)c(Cl)c1,105
CCCCc1c(-c2ccc(OC)cc2)[nH]c2nccnc12,100
O=C1NC(=O)c2c1c1c3ccccc3[nH]c1n1cncc21,55.1
CN1CCN(c2ccc3nc(-c4c(N)c5c(F)cccc5[nH]c4=O)[nH]c3c2)CC1,53.9
Cc1ccc(S(=O)(=O)/C=C/C#N)cc1,103
